Published values of several laboratories.
Compare with care: the assays were run in different laboratories. ± marks the error that the study gave.

N[C@@H](CCC(=O)N[C@@H](CS[Se]Cc1ccc(-c2cc(C(F)(F)F)nn2-c2ccc(S(N)(=O)=O)cc2)cc1)C(=O)NCC(=O)O)C(=O)O — IC50 (UACC-903 melanoma cells; cell viability, MTS; 24 h, metastatic stage): 30.9 ± 2.8 µM
Cc1ccc(-n2cc(CSc3nc4ccccc4n3Cc3cn(-c4ccc(C)cc4)nn3)nn2)cc1 — IC50 (HEK293; cell growth or viability, MTT): 77.6 µg/mL
O=C(CCc1ccc(O)cc1)c1c(O)cc(O)cc1O — IC50 (human cells; NF-κB reporter gene, inhibitor; added: TNF-alpha): 40.7 µM
O=[N+]([O-])c1ccc(NC2=N[N+](=Cc3cccs3)[Pd-]([Cl])([Cl])[S]2)cc1 — IC50 (MDCK; cell proliferation): > 100 µM
CC(C)C1OC(=O)C(NC(=O)c2cccc(O)c2)C(C)OC(=O)C(C(C)C)OC(=O)C(C)(C)C(=O)C(Cc2ccccc2)OC1=O (stereo not shown) — IC50 (SGC-7901/DDP cisplatin-resistant; cell viability, CCK-8; 72 h): > 20 µM
O=C1/C(=C/c2ccccc2F)CNC/C1=C\c1ccccc1F — IC50 (MGC-803; cell growth or viability, MTT; 72 h): 3.1 µM
Cn1cnc(Cn2ccc3ccc(CNCc4[nH]c5ccccc5c4C4NC(=O)c5ccc(O)cc54)cc32)c1 (stereo not shown) — IC50 (NCI-H358; cell growth or viability, ATP luminescence; 72 h): > 30 µM
COc1cc(C2c3cc4c(cc3C(OC3OC5COC(C)OC5C(O)C3O)C3COC(=O)C23)OCO4)cc(OC)c1OC(=O)OC1C=CCCC(C)(C(=O)NC(CC(=O)O)C(=O)O)CC1 (stereo not shown) — IC50 (MC-38; cell growth or viability, MTT; 24 h): 10.8 µM
O=[N+]([O-])c1ccc(C(c2c(-c3ccccc3)[nH]c3ccccc23)c2c(-c3ccccc3)[nH]c3ccccc23)cc1 — IC50 (B16; cell growth or viability, MTT; 24 h): 23.3 µM
COc1cc(-c2coc3cc(O)cc(O)c3c2=O)ccc1O — IC50 (Huh-7; cell growth or viability, MTT; 24 h): > 100 µM
Fc1ccccc1/C=C/c1nc2ccccc2nc1N1CCOCC1 — IC50 (HeLa 229; cell growth or viability, MTT; 72 h): 12.3 µM
CCCC[C@@H]1NC(=O)CN(S(C)(=O)=O)CCNC(=O)[C@H](CCCCN)NC(=O)[C@H](CC(C)C)NC(=O)[C@H](CCC(N)=O)NC(=O)[C@H](CC(C)C)NC(=O)[C@H](CCCCN)NC(=O)COC[C@H]2CCCN2C(=O)[C@H](Cc2c[nH]c3ccccc23)NC(=O)[C@H](C)NC(=O)[C@H](C(C)C)NC(=O)[C@H](C(C)C)NC1=O — IC50 (NCI-H929; viability, TO-PRO-3 staining, flow cytometry): 13.3 µM
CC(C)(C)OC(=O)NCC(=O)OC1CC2(C)C(CC(O)C3C(C4(C)CCCC(C)(C)O4)CCC32C)C2(C)CCC(OC(=O)CNC(=O)OC(C)(C)C)C(C)(C)C12 (stereo not shown) — IC50 (Hep3B; HRE reporter gene, inhibitor; 24 h, hypoxia): 2.71 ± 0.11 µM
Cc1ccn2c(Nc3ccc(C(=O)NO)cc3)cnc2c1 — IC50 (CAL-27; cell growth or viability, MTT): 3.92 µM
CCNC(=O)OCc1c(COC(=O)NCC)c(-c2ccc(OC)cc2)n2c1Cc1ccccc1-2 — IC50 (PC-9 gefitinib-resistant B4; cell growth, Alamar Blue; 72 h): 57.7 ± 3.4 µM
CC1(C)CCCC(C)(C2CCC3(C)C2C(O)CC2C4(C)CCC(O)C(C)(C)C4C(OC(=O)c4cn(-c5ccc(Cl)cc5)nn4)CC23C)O1 (stereo not shown) — IC50 (Hep3B; HRE reporter gene, inhibitor; 24 h, hypoxia): > 30 µM
CC(C)OC(=O)[C@]12CS[C@H](c3ccccc3)N1C(=O)/C(=C(\O)CCc1ccccc1)C2=O — IC50 (MDCK; cell growth or viability, resazurin): 31.3 µg/mL
CSCC[C@@H]1NC(=O)CN(S(C)(=O)=O)CCNC(=O)[C@H](CCCCN)NC(=O)[C@H](CC(C)C)NC(=O)[C@H](CCCCN)NC(=O)[C@H](CC(C)C)NC(=O)[C@H](CCCCN)NC(=O)CN(S(C)(=O)=O)CCNC(=O)[C@H](Cc2c[nH]c3ccccc23)NC(=O)[C@H](CO)NC(=O)[C@H](C(C)C)NC(=O)[C@H](C(C)C)NC1=O — IC50 (NCI-H929; viability, TO-PRO-3 staining, flow cytometry): 15.5 µM
O=C(/C=C/C=C/c1ccccc1)c1ccccc1OCc1cc(F)cc(F)c1 — IC50 (SK-BR-3; cell growth or viability, MTT; 48 h): 16.9 µM
CC1(C)CCCC(C)(C2CCC3(C)C2C(O)CC2C4(C)CCC(OC(=O)c5cn(-c6ccc(Cl)cc6)nn5)C(C)(C)C4C(O)CC23C)O1 (stereo not shown) — IC50 (Hep3B; HRE reporter gene, inhibitor; 24 h, hypoxia): > 30 µM
C=C(C)[C@@H]1CC[C@]2(C(=O)O)CC[C@]3(C)[C@H](CC[C@@H]4[C@@]5(C)CC[C@H](O[C@@H]6O[C@@H](C)[C@H](O)[C@@H](O)[C@H]6O)C(C)(C)[C@@H]5CC[C@]43C)[C@@H]12 — IC50 (DLD-1; cell growth or viability, fluorescence; 48 h): 2.5 µM
CC(C)Cc1ccc(C(C)C(=O)NN=Cc2ccc(OCC(=O)NN=Cc3cccc([N+](=O)[O-])c3)cc2)cc1 (stereo not shown) — IC50 (U87 MG; cytotoxicity, MTT): 35.73 ± 0.09 µM
CC1CCC(C(C)C)C(OC(=O)Cn2c(-c3ccc(OC(=O)CCCCC4SCC5NC(=O)NC54)cc3)[n+](C)c3ccccc32)C1 (stereo not shown) — IC50 (HTS; cell growth or viability, ATP luminescence; 96 h): 1.53 µM
COc1ccc(C(c2c[nH]c3ccccc23)c2c[nH]c3ccccc23)cc1 — IC50 (B16; cell growth or viability, MTT; 24 h): 5.31 µM
C[N+]1(C)CC[NH2+][Pt-2]1([OH])([Cl])([Cl])[O]C(=O)CCC(=O)O — IC50 (P31; cell viability, EZ4U; 96 h): 164 ± 2 µM
O=C(/C=C/c1ccc(O)cc1)c1ccccc1 — IC50 (human cells; NF-κB reporter gene, inhibitor; added: TNF-alpha): 24 µM
CN(C)c1ccc(-c2nc3ccccn3c2Nc2ccc(C(=O)NO)cc2)cc1 — IC50 (CAL-27; cell growth or viability, MTT): 3.64 µM
Clc1ccc(C=[N+]2N=C(Nc3ccccc3)[S][Pt-]2([Cl])[Cl])s1 — IC50 (MDCK; cell proliferation): 12.6 µM
CN(C)S(=O)(=O)c1ccc(Cl)c(NC(=O)CC[Se]Cc2ccc(C(C)(C)C)cc2)c1 — IC50 (normal cells): > 100 µM
COc1cc(CN2CCN(c3ccc(C)cc3)CC2)c2cc3[n+](cc2c1O)CCc1cc2c(cc1-3)OCO2 — IC50 (Ca-Ski; cell growth or viability, SRB; 48 h): 5 µg/mL
CC1(C)Cc2c(-c3ccccc3)c(-c3ccc(Cl)cc3)c(CC(=O)NCC(=O)O)n2C1 — IC50 (THP-1-derived macrophages; PGI2 production; added: LPS): > 100 µM
O=C1/C(=C(\O)c2ccccc2)C(=O)[C@@]2(C(=O)OC3CCCCC3)CS[C@H](c3ccccc3)N12 — IC50 (MDCK; cell growth or viability, resazurin): 62.5 µg/mL
COc1ccc(/C=C\C(=O)OC2CCC3(C)C(C(O)CC4(C)C3CC(O)C3C(C5(C)CCCC(C)(C)O5)CCC34C)C2(C)C)cc1 (stereo not shown) — IC50 (Hep3B; HRE reporter gene, inhibitor; 24 h, hypoxia): 1.47 ± 0.08 µM
COc1cc2c(cc1C(C)(C)O)CCC1C(C)(C)c3nc(C)ncc3C[C@]21C (mixture of isomers) — IC50 (HAF fibroblasts; cell growth, SRB; 24 h): 112 µM
O=C(NNc1nc(-c2ccccc2)cs1)c1cc2ccc(O)cc2oc1=O — IC50 (EA.hy 926; cell growth or viability, SRB; 72 h): 8.4 µM
CC1(C)CCCC(C)(C2CCC3(C)C2C(O)CC2C4(C)CCC(O)C(C)(C)C4C(OC(=O)Nc4ccccc4)CC23C)O1 (stereo not shown) — IC50 (Hep3B; HRE reporter gene, inhibitor; 24 h, hypoxia): 5.47 ± 0.11 µM
Cc1ccc(-c2nc(SCc3cn(CC(=O)NC(=O)Nc4ccccn4)nn3)nc(Nc3cccc(C(F)(F)F)c3)c2C#N)cc1 — IC50 (MGC-803; cell growth or viability, MTS; 5 days): 6.62 µM
CCCC[C@@H]1NC(=O)CN(S(C)(=O)=O)CCNC(=O)[C@H](CCCCN)NC(=O)[C@H](CC(C)C)NC(=O)[C@H](CCCCN)NC(=O)[C@H](CCC(N)=O)NC(=O)[C@H](CCCCN)NC(=O)COC[C@H]2CCCN2C(=O)[C@H](Cc2c[nH]c3ccccc23)NC(=O)[C@H](C)NC(=O)[C@H](C(C)C)NC(=O)[C@H](C(C)C)NC1=O — IC50 (NCI-H929; viability, TO-PRO-3 staining, flow cytometry): 24.8 µM
C=CCc1ccc(OC(C)=O)c(OC)c1 — IC50 (HMEC; MTT; 24 h): > 50 µM
COc1cc(CN2CCN(c3cccc(Cl)c3)CC2)c2cc3[n+](cc2c1O)CCc1cc2c(cc1-3)OCO2 — IC50 (Ca-Ski; cell growth or viability, SRB; 48 h): 4.92 µg/mL
FC(F)(F)c1n[nH]cc1-c1nc2ccc3[nH]ncc3c2c2c1CCCCC2 — IC50 (MOLM-14; cell growth or viability, resazurin; 72 h): 0.0166 µM
CCc1n(CC(=O)O[C@@H]2C[C@H](C)CC[C@H]2C(C)C)c2ccccc2[n+]1C — IC50 (primary mouse glioblastoma cultures; cell viability): ~0.15 µM
CC1=C2[O][Ru-]([Cl])[O+]=C2C=CN1CCCCCCN1C=CC2=[O+][Ru-]([Cl])[O]C2=C1C.Cc1ccc(C(C)C)cc1.Cc1ccc(C(C)C)cc1 — IC50 (RT-4; cell growth or viability, crystal violet; 96 h): > 20 µM
C[C@]12CC/C(=N\O)C=C1CCC1C2CC[C@]2(C)/C(=C/c3ccccn3)CCC12 (stereo partly shown) — IC50 (CEM; cytotoxicity, alamarBlue; 72 h): > 50 µM
CC1(C)CCCC(C)(C2CCC3(C)C2C(O)CC2C4(C)CCC(OC(=O)CN)C(C)(C)C4C(O)CC23C)O1 (stereo not shown) — IC50 (Hep3B; HRE reporter gene, inhibitor; 24 h, hypoxia): 2.81 ± 0.09 µM
COc1cc(N2CCN(C)CC2)ccc1Nc1ncc2c(n1)N(C)c1ccc(C)cc1C(=O)N2CC(F)(F)F — IC50 (PaTu 8902; cell growth or viability; 5 days, 3D culture): > 20 µM
COc1ccc2nc(NC(=O)c3ccc(C(N)c4ccccc4)cc3)sc2c1 (stereo not shown) — IC50 (NSCLC cell lines; cell viability; eight other cell lines): > 10 µM
Cc1c(OCc2ccccc2)c(=O)ccn1CCCOC(=O)c1ccccc1Cl — IC50 (fibroblast cells; cell viability, MTT; 48 h): 26 µg/mL
O=C(/C=C(O)/C=C/c1cccs1)/C=C/c1cccs1 — IC50 (EA.hy 926; cell growth or viability, MTT; 72 h): 43.7 µM

Excerpt of the above:
COc1cc2c(cc1C(C)(C)O)CCC1C(C)(C)c3nc(C)ncc3C[C@]21C (mixture of isomers) — IC50 (HAF fibroblasts; cell growth, SRB; 24 h): 112 µM
O=C(NNc1nc(-c2ccccc2)cs1)c1cc2ccc(O)cc2oc1=O — IC50 (EA.hy 926; cell growth or viability, SRB; 72 h): 8.4 µM
CC1(C)CCCC(C)(C2CCC3(C)C2C(O)CC2C4(C)CCC(O)C(C)(C)C4C(OC(=O)Nc4ccccc4)CC23C)O1 (stereo not shown) — IC50 (Hep3B; HRE reporter gene, inhibitor; 24 h, hypoxia): 5.47 ± 0.11 µM
Cc1ccc(-c2nc(SCc3cn(CC(=O)NC(=O)Nc4ccccn4)nn3)nc(Nc3cccc(C(F)(F)F)c3)c2C#N)cc1 — IC50 (MGC-803; cell growth or viability, MTS; 5 days): 6.62 µM
CCCC[C@@H]1NC(=O)CN(S(C)(=O)=O)CCNC(=O)[C@H](CCCCN)NC(=O)[C@H](CC(C)C)NC(=O)[C@H](CCCCN)NC(=O)[C@H](CCC(N)=O)NC(=O)[C@H](CCCCN)NC(=O)COC[C@H]2CCCN2C(=O)[C@H](Cc2c[nH]c3ccccc23)NC(=O)[C@H](C)NC(=O)[C@H](C(C)C)NC(=O)[C@H](C(C)C)NC1=O — IC50 (NCI-H929; viability, TO-PRO-3 staining, flow cytometry): 24.8 µM
C=CCc1ccc(OC(C)=O)c(OC)c1 — IC50 (HMEC; MTT; 24 h): > 50 µM
COc1cc(CN2CCN(c3cccc(Cl)c3)CC2)c2cc3[n+](cc2c1O)CCc1cc2c(cc1-3)OCO2 — IC50 (Ca-Ski; cell growth or viability, SRB; 48 h): 4.92 µg/mL
FC(F)(F)c1n[nH]cc1-c1nc2ccc3[nH]ncc3c2c2c1CCCCC2 — IC50 (MOLM-14; cell growth or viability, resazurin; 72 h): 0.0166 µM
